Assay results collected from several papers.
Numbers after ± are the reported error.

SMILES	tested on	assay	test system	conditions	scale	measurement	value
N=C(N)NCCC[C@@H](NC(=O)[C@H](Cc1ccccc1)NC(=O)[C@H](Cc1ccccc1)NC(=O)[C@@H](CCCNC(=N)N)NC(=O)CCCC[C@@H]1SC[C@@H]2NC(=O)N[C@@H]21)C(N)=O	MDBK	cell survival, AlamarBlue	–	5 days, serum-free medium	–	EC50	~100 nM
CCc1cnc(N2CCC(c3nc(COc4ccc(-n5cnnn5)cc4)cs3)CC2)nc1	HEK-293T ATF4-FLuc reporter	reporter gene, activator, item: ATF4-FLuc	–	8 h	–	EC50	3600 nM
CNS(=O)(=O)Nc1nccc(Cc2c(C)c3ccc(Oc4ncccc4F)cc3oc2=O)c1F	KMS-11	cell viability	–	7 days	–	IC50	> 1000 nM
O=c1[nH]nc(OCCCc2ccc(Cl)cc2)c(NCc2cccnc2)c1Br	HEK-293T ATF4-FLuc reporter	reporter gene, activator, item: ATF4-FLuc	–	–	–	EC50	2400 nM
C=C(NC(=O)c1csc(-c2ccc(NC(=O)CCCCCBr)cc2)n1)C(=O)NC(=C)C(=O)OC	H-MESO-1	cell viability, crystal violet	–	48 h	–	EC50	860 ± 60 nM
CC(=O)N[C@@H](CC[S+](C)[Ru-4]123([S+](C)CC[C@H](NC(C)=O)C(=O)O)[n+]4ccc5ccccc5c4Nc4cccc([n+]41)-c1cccc([n+]12)Nc1c2ccccc2cc[n+]13)C(=O)[O-].F[P-](F)(F)(F)(F)F (stereo partly shown)	MRC-5	photocytotoxicity, SRB	–	24 h, with: green light	–	EC50	< 1000 nM
Cc1ncsc1-c1ccc(C(C)NC(=O)C2CC(O)CN2C(=O)C(NC(=O)CCCCCCCCCCN2CCCC(Nc3ncc(Cl)c(Nc4ccccc4S(=O)(=O)C(C)C)n3)C2)C(C)(C)C)cc1 (stereo not shown)	22Rv1	RNA-seq, item: TPSG1 mRNA	–	concentration not given	reference: DMSO	log2 fold change	-5.49
COc1ccc(CC[C@H]2OC(=O)[C@@H]3CCCCN3C(=O)C(=O)C(C)(C)COC(=O)/C=C/CCN(C)C(=O)[C@H](CC(C)C)N(C)C(=O)[C@@H]3CCCN3C(=O)[C@H](Cc3ccccc3)N(C)C(=O)[C@H](c3ccccc3)NC(=O)CCC(=O)Nc3cccc2c3)cc1OC	human red blood cells	[3H]adenosine uptake, inhibitor	–	–	–	EC50	45.2 nM
C=CC(=O)N1[C@H](c2ccc3c(c2)OCO3)c2[nH]c3ccccc3c2C[C@@H]1C(=O)NC1CC1	rat DRG neurons	neurite degeneration	–	48 h, with: vincristine 40 nM	–	EC50	282 nM
COC1CN([C@H]2CC[C@H]([C@@]3(C)Oc4c(Cl)cc(C(=O)NCc5c(SC)cc(C)[nH]c5=O)c(C)c4O3)CC2)C1	–	RNA-seq, item: GRAMD1C mouse homolog	mouse, HT-1376 xenograft, whole blood	dose not given	reference: vehicle	log2 fold change	0.694
Nc1ncc(-c2cc(-c3cnn(CC(F)(F)F)c3)ncc2F)nc1C(=O)NC1CNCC(F)C1 (stereo not shown)	NEK4	KINOMEscan	–	1 µM	reference: DMSO control	remaining binding	95%
C=C(NC(=O)c1csc(-c2cccnc2)n1)C(=O)NC(=C)C(=O)OC	H-MESO-1	cell viability, crystal violet	–	6 h exposure, 48 h total	–	EC50	6200 nM
N#Cc1[nH]nnc1-c1cccc(Oc2ccccc2)c1	CHO cells expressing NaCT	TCA cycle acceleration, activator, [14C]citric acid metabolism	–	–	–	EC50	330 nM
CN1CC[C@@H](COc2cnc(C#N)cc2-c2ccn3nc(NC(=O)C4CC4)cc3c2)C1	wild-type mouse BMDC	IL-10 release, inducer	–	4 h, with: LPS	–	EC50	950 nM
C=C(NC(=O)C(=C)NC(=O)c1csc(C2=N[C@@H]3c4csc(n4)[C@H]4NC(=O)c5csc(n5)[C@H]([C@](C)(O)[C@@H](C)O)NC(=O)[C@H]5CSC(=N5)/C(=C/C)NC(=O)[C@H]([C@@H](C)O)NC(=O)c5csc(n5)[C@]3(CC2)NC(=O)[C@H](C)NC(=O)C(=C)NC(=O)[C@H](C)NC(=O)[C@H]([C@@H](C)CC)N[C@@H]2C=Cc3c([C@H](C)O)cc(nc3[C@H]2O)C(=O)O[C@@H]4C)n1)C(N)=O	H-MESO-1	cell viability, crystal violet	–	3 h exposure, 48 h total	–	EC50	4600 nM
CN1CCCNC(=O)c2cccc(c2)C(=O)NCCCN(C)CCCNc2cccc3c2C(=O)c2cccc(c2C3=O)NCCC1	SAS	RNA-Seq, item: ARV1 mRNA	–	1 µM, 6 h	reference: untreated cells	log2 fold change	-0.83
